Published values gathered from unrelated publications.
Parts stem from different laboratories: compare values within a part only.

Study 1 — method: RNA Bind-n-Seq; molecule type: RNA; sample: in vitro; concentration: 365 nM; relative to: no-protein control; direction: higher = stronger binding
Target: RNA binding protein fox-1 homolog 2, RRM domain, GST-SBP tag (RBFOX2, Homo sapiens, UniProt O43251-10, residues 100-194)
Notes: natural RNA segment, single round, ends assumed
Shared flanks, not repeated: GGGAGUUCUACAGUCCGACGAUC … UGGAAUUCUCGGGUGCCAA
Residues (chain): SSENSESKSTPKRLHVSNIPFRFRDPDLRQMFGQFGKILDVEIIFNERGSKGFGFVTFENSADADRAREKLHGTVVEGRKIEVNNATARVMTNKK
Oligonucleotide | RBNS enrichment (R)
UUGGGGGUCUGAAGGUGGCUGGCACUGGGCCUCAGGUCACCCUGAGCCAGUCCCGUGGCCACUUCAGCCCUUUUCCAUCCUCUUUUUAUGACGGUGUGUGUGAGAGAGUG | 0.204
UCAAAGAAACCCAGCUAAGUAAGCAACAUAAAGCCUGUUGUGUCAGGUCCUGCAGGUCGAUGUGUGAGUCAGGAAACACUGCAGGGAAAUAGACCUUUCCUUCCGUACCU | 0.571
CUUAGACCACUUUGAGUGCAGUUCUUCUACUCCCAUGCCUUCCCGAUCCGUCUCGGCUACUGCAGAGCACUGACUGCUCUGAGGAGAGGGAAGAGGGUCUGCUGGGGGUU | 0.27
GGUUGGAGUGGUGCGGGAGCAGGCUGCCGAGUGGAGGGUGCCAUCGAGGGCUCCGGAUCCCUUAUCCUACUUAGCAGUGUUGGUCUCUGGGGCUGGAAGCCGAGCGCAUG | 4.95
UAUCAAGCCUCUGCCUUGGUUUCUGAGCUAUAUGAGGGUGGGGAAGGCACACUCUUUUUUCCUUUUUCCUUAGGUUCCCAAUAUUAUUUGGUGGAAACGUGGGCUUUCUC | 0.467
GCUUCCUCUUCCGGGGCUUCUGGGUGGGCAAACAAGGAAUAAAGGUGAUUCUUGGCUGUGGCCCACUUCCCUUGGGUGCUGUGGCGAGUACUUACUAAUCCUGGAUGGAG | 0.608
AGACUCUCGGGGCUGGUGCCAGUGCCCCAGGGGCCUCCUGGGCCACGGGCUGGAGGGGCUGCCCAGGGACCUUGGUCUCGAAGCCAUACGUGGUUGUCUGCUUUCCUAAG | 0.292
UUUAUAACCCAUUCAUACUCUCUGGCUGUCCCCAACCUUCAUAGUCUCCUGCAUCCAAAUGUCCUCUUUGGCUCAAAAAGUAGGCCAGGCAUGGUGGUUCAUGCCUGUAA | 0.67

Study 2 — method: RNA Bind-n-Seq; molecule type: RNA; sample: in vitro; concentration: 20 nM; notes: 6-mer, flanks averaged, single round; added: 150 mM KCl; relative to: input library; direction: higher = stronger binding
Target: TAR DNA-binding protein 43, full length, His tag (TARDBP, Homo sapiens, UniProt Q13148, residues 1-414)
Oligonucleotide | 6-mer enrichment (R)
UGAGCG | 1.55
GCUAAA | 0.72
AGCGGG | 4.08
ACAAUC | 0.593
GCAUCA | 0.685
AAGAAC | 0.762
CUGUAG | 0.931
ACCCCC | 0.671
UCUUCU | 0.542
UUAGAG | 0.88
AAGGUU | 0.676
CGCUGA | 0.78
UGCACG | 0.971
UCUGAU | 0.568
ACUCAC | 0.585
UAAAGU | 0.657
GCUAUG | 0.891
GGGCAA | 2.35

Study 3 — method: RNA Bind-n-Seq; molecule type: RNA; sample: in vitro; concentration: not given; relative to: input RNA pool; direction: higher = stronger binding
Target: RING finger protein unkempt homolog, zinc fingers 1-6, GST-SBP tag (UNK, Homo sapiens, UniProt Q9C0B0, residues 30-357)
Notes: RNA with constant flanks, human and mouse sites, ends assumed
Shared flanks, not repeated: GGGAGUUCUACAGUCCGACGAUC … CAACAGAGGAUUGAGCAUCA
Target sequence (chain): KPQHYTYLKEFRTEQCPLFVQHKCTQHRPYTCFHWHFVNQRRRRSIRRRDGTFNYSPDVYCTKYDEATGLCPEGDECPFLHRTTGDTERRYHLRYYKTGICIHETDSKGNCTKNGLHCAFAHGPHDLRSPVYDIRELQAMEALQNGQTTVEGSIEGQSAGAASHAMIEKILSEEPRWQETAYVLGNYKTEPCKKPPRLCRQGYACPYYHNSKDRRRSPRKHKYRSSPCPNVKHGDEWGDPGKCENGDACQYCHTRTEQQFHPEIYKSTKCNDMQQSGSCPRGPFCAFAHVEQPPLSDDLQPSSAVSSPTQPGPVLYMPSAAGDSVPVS
Oligonucleotide | bound/input enrichment [ratio]
UUCCUGUCACACCCAGUCGAGUGCAGAGGCCGAAGCAUCCCUCACACACGACCUGCAGGGCUUUUCCUGCACCGCGGAGCCGCGCAGCCUCCACGCUGCAAACUCUUAAAAGCGCCGAAC | 0.168
GUUGCCAGCUUCCGGUUCCGUUGGGCUCGGUUCUCUCCUGAGCUACGUGUCUCUACGCUCUCAAUCCGCCAUCCAACAAACAUGGAUCAGGUAAUGCAGUUUGUGGAGCCCAGCCGGCAG | 0.0925
CAGGAGAACAGGCACUGUAAACCACAUCAUCAGUUUAAAGACUCGGAUUGUCACUAUUUAGAAGCAAGAUGCUUGAAUGAGAGAGAUUAUCGGGACCGGAGAUACAUUGAUGAAUACAGA | 0.211
UUUGUAAAUUUCUCCGAGCAGAAAGAAAAGUUAAUAAAGCGUCAAGAAGAGUUAGAUAGGGGUUACAAAUCAAUCAUGGAACUGAUGAAUGUACUUGAACUUCGGAAAUAUGAAGCUAUU | 1.19
UGCAAUUAUGCCAAACAGUAUUGAGCAGAAUAAUUUAUUUCUUUUUUUUCUUUUGCUUUAAAUCAUGAAUCCCGCCAGGUACGGUGGCUCACACCUGUCAUCCCAGCACUUUGGGAGGCC | 1.63
GCCUCUCUCUUUAUACAUAUGUUUGUCUCGCCAUGCAUGGGUUUUCCUUUCUUCCUUUUUCUGUUUCUUUUUAUUUUUAAACAGCAGUAGUCUCUCUGAUAUCAAAGAGGGAGACAGUGU | 0.576
UGGGUUUGGGGUAGAAGGGUGGGAAGGGGCAGGAUAAGUGGAAUCUCUAGGGUGUAUGGGAAGUAGAGGGCAGUUAGUUCUAAGUGGGCUUUUAUGUUCCCUGUUGUGAGGGUGAGAACA | 37.7
GCUAUGGACACAGAGUUCCCAGGUGUUGUUGUACGGCCGAUCGGUGAAUUUCGAAGCUCCAUAGAUUACCAGUAUCAGCUUCUGCGGUGCAAUGUUGAUCUUCUUAAAAUCAUCCAGCUG | 0.465

Study 4 — method: RNA Bind-n-Seq; molecule type: RNA; sample: in vitro; concentration: 1 µM; notes: whole 134-nt RNA, ends assumed; added: 150 mM KCl; relative to: input library; direction: higher = stronger binding
Target: Ras GTPase-activating protein-binding protein 1, RRM domain (G3BP1, Homo sapiens, UniProt Q13283)
Sequence of UniProt Q13283 (whole entry, looked up): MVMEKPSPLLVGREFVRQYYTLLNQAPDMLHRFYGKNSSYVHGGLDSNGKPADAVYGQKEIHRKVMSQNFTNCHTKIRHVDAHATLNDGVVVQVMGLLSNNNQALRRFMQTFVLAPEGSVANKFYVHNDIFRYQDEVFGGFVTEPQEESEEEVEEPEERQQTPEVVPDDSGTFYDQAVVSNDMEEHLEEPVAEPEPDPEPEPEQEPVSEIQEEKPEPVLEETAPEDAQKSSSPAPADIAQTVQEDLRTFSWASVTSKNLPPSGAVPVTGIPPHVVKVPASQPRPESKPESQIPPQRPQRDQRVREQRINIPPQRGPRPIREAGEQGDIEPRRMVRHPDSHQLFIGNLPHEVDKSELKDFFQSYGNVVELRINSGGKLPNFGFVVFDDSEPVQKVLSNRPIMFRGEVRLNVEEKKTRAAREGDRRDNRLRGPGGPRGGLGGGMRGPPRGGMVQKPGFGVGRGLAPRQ
Shared flanks, not repeated: GGGAGUUCUACAGUCCGACGAUC … UGGAAUUCUCGGGUGUCAAGG
Oligonucleotide | log2 enrichment
GUCCUGUGCUACACAUCGUAUGUACCGAAUCGGGAAAAAGGAAAAAGGGGAAAAAGGGGAAAGUAUUAUGUUACGCCGUUCGGAUCUGCA | 0.181
UCAAGUCCUGUGCUACACAUCGUAUGUACCGAAUCGGAAAGGAAAGGGAAAGGGGAAAGUAUUAUGUUACGCCGUUCGGAUCUGCACUUC | -0.159
UUCUGCACCUCUGCUACCUAAAGAAGACCCAAUCUUCACAUAUUUAUCUAAACGGUUAGGAAGGAGUAUAGAUGACAUAGGUCACCUCAU | -0.0597
GUCCUGUGCUACACAUCGUAUGUACCGAAUCGGGGAAAGGGGAAAGGGGAAAAAGGGGAAAGUAUUAUGUUACGCCGUUCGGAUCUGCAC | 1.37
UGGGAGGUGGAUUUUGUUUAUUUUUUUAGCUCAUUUCCAGGGGUGGGAAUUUUUUUUUAGUAUGUGUCAUGAAUAAAGUUGUUUUUGAAA | 1.44
CACAGACAACACGCAUCCACACAGACACAGAGGGAAGGGGUUGGGAUGGGGACAGGGUGCACAGCAGGGCGGGGUAGGACCCCAGCCCCU | 0.0502
UAACUUUAGAGGAGGAUCUGAGGGAUAUGGCAGUGGACGUGGAUUUGGGGAUGGCUAUAAUGGGUAUGGAGGAGGACCUGGAGGUGGCAA | -0.414
AUUUCUCAGUUGAAGGAUGCUUACACUCUUGUCCAUCUAGACCUCAAUUACUGUUUUUCAGGAAUGUCUGAUCACAGAUACGGGGAUGGU | -0.229
CAAGUCCUGUGCUACACAUCGUAUGUACCGAAUCAAACCCAAACCCAAAUUUAAAAAAGUAUUAUGUUACGCCGUUCGGAUCUGCACUUC | -0.112

Excerpt of the above (study 3):
Oligonucleotide | bound/input enrichment [ratio]
GUUGCCAGCUUCCGGUUCCGUUGGGCUCGGUUCUCUCCUGAGCUACGUGUCUCUACGCUCUCAAUCCGCCAUCCAACAAACAUGGAUCAGGUAAUGCAGUUUGUGGAGCCCAGCCGGCAG | 0.0925
UUCCUGUCACACCCAGUCGAGUGCAGAGGCCGAAGCAUCCCUCACACACGACCUGCAGGGCUUUUCCUGCACCGCGGAGCCGCGCAGCCUCCACGCUGCAAACUCUUAAAAGCGCCGAAC | 0.168
GCCUCUCUCUUUAUACAUAUGUUUGUCUCGCCAUGCAUGGGUUUUCCUUUCUUCCUUUUUCUGUUUCUUUUUAUUUUUAAACAGCAGUAGUCUCUCUGAUAUCAAAGAGGGAGACAGUGU | 0.576
CAGGAGAACAGGCACUGUAAACCACAUCAUCAGUUUAAAGACUCGGAUUGUCACUAUUUAGAAGCAAGAUGCUUGAAUGAGAGAGAUUAUCGGGACCGGAGAUACAUUGAUGAAUACAGA | 0.211
GCUAUGGACACAGAGUUCCCAGGUGUUGUUGUACGGCCGAUCGGUGAAUUUCGAAGCUCCAUAGAUUACCAGUAUCAGCUUCUGCGGUGCAAUGUUGAUCUUCUUAAAAUCAUCCAGCUG | 0.465
UUUGUAAAUUUCUCCGAGCAGAAAGAAAAGUUAAUAAAGCGUCAAGAAGAGUUAGAUAGGGGUUACAAAUCAAUCAUGGAACUGAUGAAUGUACUUGAACUUCGGAAAUAUGAAGCUAUU | 1.19
